Assay results of several laboratories.
Every numbered part comes from another study and shows a few of its results, in no order. Positions count from the first letter of the parent shown.

Study 1
Target: Interferon regulatory factor 7, full length, phosphomimetic (IRF7, Homo sapiens, UniProt Q92985, residues 1-503, S101K/S471D/S472D/S475D/S476D/S477D/S483D/S484D/S487D)
Chain of UniProt Q92985 (whole entry, unmodified, looked up): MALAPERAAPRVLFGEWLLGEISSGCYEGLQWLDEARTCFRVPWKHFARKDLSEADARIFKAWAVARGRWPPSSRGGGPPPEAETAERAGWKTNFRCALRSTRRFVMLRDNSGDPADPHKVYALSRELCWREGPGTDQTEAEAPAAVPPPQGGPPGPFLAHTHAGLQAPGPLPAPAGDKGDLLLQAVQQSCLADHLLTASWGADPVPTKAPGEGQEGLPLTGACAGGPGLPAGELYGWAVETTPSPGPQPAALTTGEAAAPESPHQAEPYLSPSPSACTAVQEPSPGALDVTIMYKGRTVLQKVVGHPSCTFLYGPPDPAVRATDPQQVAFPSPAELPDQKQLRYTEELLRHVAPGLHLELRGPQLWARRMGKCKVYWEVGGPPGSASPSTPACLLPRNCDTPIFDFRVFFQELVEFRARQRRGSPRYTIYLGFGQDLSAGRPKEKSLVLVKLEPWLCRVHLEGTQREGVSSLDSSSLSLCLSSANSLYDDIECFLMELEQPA
Technique: protein-binding microarray
Molecule type: double-stranded DNA, one strand shown
Matrix: in vitro
Tested at: 250 nM
Notes: 60-bp whole probe
With: salmon DNA 0.4 mg/ml
Baseline: random background probes
Direction: higher = stronger binding
Shared flanks, not repeated: GCCTAGCAC … GTCTTGATTCGCTTGACGCTGCTG
Oligonucleotide | log fluorescence
TTAGGACTGGGGTTTCGGCTAGTGCTA | 0.697 z-score
TTAGATATTAGTATCGATTAGTGCTAG | 1.21 z-score
TTAGCTATCGGGACTGGATTAGTGCTA | -0.758 z-score
GACAATATCAGTTTCGAGACGTGCTAG | 4.49 z-score
TCATCTTTTCTTTTCTTACTGTGCTAG | 1.9 z-score
TTAGGTTTCGGTCTCGCTTAGTGCTAG | 8.19 z-score
TTAGGTATCGATTTTCGGTTAGTGCTA | 4.67 z-score
TTAGGTTTCGCGTTTCGGTTAGTGCTA | 9.08 z-score
GACGGTATCGAGACTGGGGACGTGCTA | -0.139 z-score
GACGGACTGGGACGGGGGACGTGCTAG | 1.18 z-score
TTAGGTATCGGTTTCGCTTAGTGCTAG | 9.17 z-score
CAGATGGAATTAAGAAGATGGTGCTAG | -0.0203 z-score
TTAGGTTTCTGTCTCGGTTAGTGCTAG | 2.57 z-score
TTAGGTTTCATTCTCCTTTAGTGCTAG | 3.86 z-score
TCAATGATCTCTCTGGGACTGTGCTAG | -0.167 z-score
TTAGGTCGCGGACTGGGTTAGTGCTAG | -0.0182 z-score

Study 2
Target: CCND1, cyclin fold, Cln2 fusion (human)
Technique: yeast growth competition, sequencing
Matrix: yeast
Notes: weak parent motif
Baseline: not given
Direction: higher = stronger binding
Starting sequence: E2F7 docking peptide (human); SSAQRRLEIPSGG
Substitution | normalised enrichment score
SSAARRLEIPSGG [Q4A] | 0.277
SSAQRRLEIPSAG [G12A] | -0.347
SSAQRRLEIASGG [P10A] | -0.0685
SSAQRRLELPSGG [I9L] | 0.45
SSAQRRLEIPSGA [G13A] | 0.203
SSAQRRLEAPSGG [I9A] | 0.333
SSAQRRLEFPSGG [I9F] | 3.24
SSAQRRAEIPSGG [L7A] | -0.0434

Study 3
Target: Centromere-binding protein 1, full length, His-tagged (CBF1, Saccharomyces cerevisiae, UniProt P17106, residues 1-351)
Chain of UniProt P17106 (whole entry, looked up): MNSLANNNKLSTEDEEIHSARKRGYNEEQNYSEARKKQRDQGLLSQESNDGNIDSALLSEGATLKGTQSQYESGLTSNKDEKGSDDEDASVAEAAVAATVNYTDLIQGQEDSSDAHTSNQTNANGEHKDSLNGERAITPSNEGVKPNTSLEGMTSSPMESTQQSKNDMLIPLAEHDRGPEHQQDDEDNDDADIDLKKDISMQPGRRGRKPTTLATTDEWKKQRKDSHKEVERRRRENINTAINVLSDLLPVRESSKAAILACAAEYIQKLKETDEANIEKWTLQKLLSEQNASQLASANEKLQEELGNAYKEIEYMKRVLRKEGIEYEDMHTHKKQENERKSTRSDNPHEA
Technique: competition protein-binding microarray
Molecule type: double-stranded DNA, one strand shown
Matrix: in vitro
Tested at: 2 µM
Notes: whole 60-bp probe, lowest competitor level
With: Pho4 competitor, 0.05 µM
Direction: higher = stronger binding
Shared flanks, not repeated: … GTCTTGATTCGCTTGACGCTGCTG
Oligonucleotide | fluorescence intensity [a.u.]
CGGGGTTAAGTTTGTCACTCAACTTGCTTGCAGCAG | 66.7
CTTTCCCGATCTTGCAGCGTGGGTGTAGCACATTTG | 80.2
GTTATAAAAGAATGTCCCGTGGTGAAAATGGATGAG | 275
CACAACAGAGTTCACCACGTGGTAACCTATTTCTAC | 1690
GCATCAGTCGGTCAACATGCGCAGGATGTTCCGTTT | 81.6
CCACTACAAAACTTCCACGTTAGAAAGGTTAAGTTA | 71.5
GGCGTTACTGATTTATACGTGGGTATCTACGATGAT | 79.8
AAAGCGGTAATTTGGACCGTGGGTGCAGATATCTAT | 64.5
CTTCTGTAAATTTTTCACGTGTATTGACGCGCCCCG | 775
TGCGCAACAACTTTTCACGTGCATTTATGTCTAGAA | 1260
TACCACACAGTCATACTCGTGATGGATTATGTGGTA | 250
GTCTTGTCTCATTGTTGCGTGGGTGTCCCCACTTCA | 77.1
CATAAGGACCCCCATATCGTGATGGTCATTGATGAC | 103
CTAACGAAGGTTTGTCACGGGACTTACAAGCCAAGT | 1360
CTCCGGAAGAAAGAGCTCGTGGTGATACAATTTCTA | 98.2
AAAGCGGTAATTTGCAAGGTGGGTGCAGATATCTAT | 67.2
CTTTCCCGATCTTGGTTAGTGGGTGTAGCACATTTG | 91.6
GCCAAGATGATTGAAAACATGACAAAGGAGAAAGTC | 105
CTTCTGTAAATTTTTCACGTGGCTTGACGCGCCCCG | 614
CTTCTGTAAATTTGTCACCGGACTTGACGCGCCCCG | 113
CCACATAAACATTCACACGTGGAACATGTACCAAAA | 708
CCCTGATTAACTCACCACGTGCTTTCAAGGTCGTTA | 3010
CGTCCTAGTGATTGTCACAATACTTCCATGAGGAAG | 98
TTTCTCTCTTCAAGTGACCTGACAGGGCCACAGTGG | 63.9
ACAGTCTTTCCGTTACACGCACACACTTGTTTATTA | 80.8

Study 4
Target: Sal-like protein 4, full length isoform A (SALL4, Homo sapiens, UniProt Q9UJQ4, residues 1-1053)
Chain of UniProt Q9UJQ4 (whole entry, looked up): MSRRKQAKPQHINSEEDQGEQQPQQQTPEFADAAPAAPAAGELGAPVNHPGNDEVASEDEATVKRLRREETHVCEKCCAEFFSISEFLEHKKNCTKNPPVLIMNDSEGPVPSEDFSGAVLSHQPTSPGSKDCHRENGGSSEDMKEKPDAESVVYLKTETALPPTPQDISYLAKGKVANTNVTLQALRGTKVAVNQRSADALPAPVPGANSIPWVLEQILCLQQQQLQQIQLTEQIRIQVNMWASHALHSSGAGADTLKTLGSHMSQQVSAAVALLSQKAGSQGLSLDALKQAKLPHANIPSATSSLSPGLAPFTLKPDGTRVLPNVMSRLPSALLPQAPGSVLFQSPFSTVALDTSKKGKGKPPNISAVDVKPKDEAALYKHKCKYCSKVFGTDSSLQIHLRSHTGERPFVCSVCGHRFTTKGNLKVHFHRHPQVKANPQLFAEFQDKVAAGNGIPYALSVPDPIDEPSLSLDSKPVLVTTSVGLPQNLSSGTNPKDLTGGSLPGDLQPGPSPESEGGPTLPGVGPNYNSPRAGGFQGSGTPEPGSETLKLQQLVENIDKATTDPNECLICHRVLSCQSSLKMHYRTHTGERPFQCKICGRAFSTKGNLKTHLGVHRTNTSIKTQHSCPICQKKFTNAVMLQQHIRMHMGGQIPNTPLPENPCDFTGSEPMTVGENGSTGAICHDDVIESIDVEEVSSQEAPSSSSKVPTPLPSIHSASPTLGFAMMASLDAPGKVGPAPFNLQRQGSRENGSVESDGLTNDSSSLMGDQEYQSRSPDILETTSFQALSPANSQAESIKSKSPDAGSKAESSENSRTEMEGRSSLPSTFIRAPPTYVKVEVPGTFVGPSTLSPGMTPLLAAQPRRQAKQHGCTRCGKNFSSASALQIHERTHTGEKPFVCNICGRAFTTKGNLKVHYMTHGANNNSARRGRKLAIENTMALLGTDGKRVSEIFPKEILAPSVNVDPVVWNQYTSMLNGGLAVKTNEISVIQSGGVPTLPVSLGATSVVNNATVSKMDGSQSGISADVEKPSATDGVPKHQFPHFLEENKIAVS
Technique: universal PBM
Molecule type: double-stranded DNA, one strand shown
Matrix: in vitro
Tested at: 600 nM
Notes: 8-mer, flanks averaged, mean of replicates
Direction: higher = stronger binding
Oligonucleotide | E-score
CTTCCTCA | -0.0287
GGCTGGCA | -0.25
AACGTTTA | 0.173
CGCGAGTC | -0.249
CGTGCTCA | -0.139
AATCGCTG | -0.105
ACTACTTG | 0.12
CAGAATTC | 0.186
TCGCTCAA | -0.083
AGATAGCT | 0.0162
ACCGGTGA | -0.195
GAATATCA | 0.287
TATCCGAA | 0.125
GGTAAGCA | -0.0892
GAGACAAC | -0.144
GGATAGAA | 0.206
GGCCAAAC | -0.277
GTTTCCGA | -0.212
CGAACCAC | -0.182
ACCTTTTA | 0.0623
ACGCACGC | -0.125
GGTTCTCA | -0.0784
CACTAAGC | -0.144
CGAGATAA | 0.113
AACCTATG | 0.173

Study 5
Target: Ras GTPase-activating protein-binding protein 1, full length (G3BP1, Homo sapiens, UniProt Q13283)
Chain of UniProt Q13283 (whole entry, looked up): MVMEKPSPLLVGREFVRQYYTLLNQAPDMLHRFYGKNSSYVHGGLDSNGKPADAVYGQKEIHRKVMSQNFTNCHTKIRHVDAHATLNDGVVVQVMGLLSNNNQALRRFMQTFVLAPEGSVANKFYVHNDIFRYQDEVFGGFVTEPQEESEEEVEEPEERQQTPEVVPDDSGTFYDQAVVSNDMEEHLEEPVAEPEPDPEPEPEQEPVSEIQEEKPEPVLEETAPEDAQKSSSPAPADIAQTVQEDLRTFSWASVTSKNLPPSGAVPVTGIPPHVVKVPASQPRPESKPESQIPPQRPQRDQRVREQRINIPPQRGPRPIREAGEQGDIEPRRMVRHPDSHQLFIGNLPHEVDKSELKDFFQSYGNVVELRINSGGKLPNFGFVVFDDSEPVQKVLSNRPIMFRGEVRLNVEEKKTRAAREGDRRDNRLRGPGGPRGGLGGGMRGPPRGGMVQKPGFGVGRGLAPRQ
Technique: RNA Bind-n-Seq
Molecule type: RNA
Matrix: in vitro
Tested at: 200 nM
Notes: whole 134-nt RNA, ends assumed
With: 150 mM LiCl
Baseline: input library
Direction: higher = stronger binding
Library: 7-deaza-guanosine replaces G
Shared flanks, not repeated: GGGAGUUCUACAGUCCGACGAUC … UGGAAUUCUCGGGUGUCAAGG
Oligonucleotide | log2 enrichment
GUCCUGUGCUACACAUCGUAUGUACCGAAUCGGUUUUUUUGGUUUUUGGUUUUUUUGGAAAGUAUUAUGUUACGCCGUUCGGAUCUGCAC | -1.41
AAGUCCUGUGCUACACAUCGUAUGUACCGAAUCAAAUUUAAAUUUUUAAACCCAAAAAAGUAUUAUGUUACGCCGUUCGGAUCUGCACUU | 0.0573
CACAGACAACACGCACCCACACAGACACAGAGGGAAGGGGUUGGGAUGGGGUCAGGGUGCACAGCAGGGCGGGGUAGGACCCCAGCCCCU | -0.112
UCCUGUGCUACACAUCGUAUGUACCGAAUCGGGGAGGGGAAAAAAAGGGGAAAAAGGGGAAAGUAUUAUGUUACGCCGUUCGGAUCUGCA | 0.429
ACCAUGCAGGUGGGCAUCUUUGGGAAGUGGGGCAAGGGGGGGAUAGGGAGGGGGAAAACACUUUGGGAACAGGUGGUCCCAGGUCGUUUC | 0.366
UCAAGUCCUGUGCUACACAUCGUAUGUACCGAAUCGGUUUGGAGGAAAAAAAGGAAAGUAUUAUGUUACGCCGUUCGGAUCUGCACUUCC | -0.249
AAGUCCUGUGCUACACAUCGUAUGUACCGAAUCGGGGUUUUUGGGGAGGGGAGGGGAAAGUAUUAUGUUACGCCGUUCGGAUCUGCACUU | 0.856
UUAGAAGAAGUGGAAAGGAAAAAACGCCAAAGGGAGUUGGAAAUUGAAGAACGAGAACGGCGUAGAGAGGAAGAGAGAAGACUUGGCGAU | -0.385
UCCUGUGCUACACAUCGUAUGUACCGAAUCGGGAAAAAGGGAAAAAGGGUUUUUUUGGGAAAGUAUUAUGUUACGCCGUUCGGAUCUGCA | -0.653
CAAGUCCUGUGCUACACAUCGUAUGUACCGAAUCGGGAAAGGGUUUGGGAAAGGGAAAGUAUUAUGUUACGCCGUUCGGAUCUGCACUUC | -0.397
CAAGUCCUGUGCUACACAUCGUAUGUACCGAAUCGGAAAGGAAAAAGGUUUUUGGAAAGUAUUAUGUUACGCCGUUCGGAUCUGCACUUC | -1.23

Some of these lines once more (study 4):
Oligonucleotide | E-score
TATCCGAA | 0.125
GAATATCA | 0.287
AACGTTTA | 0.173
AATCGCTG | -0.105
GGCTGGCA | -0.25
AGATAGCT | 0.0162
GAGACAAC | -0.144
GTTTCCGA | -0.212
ACTACTTG | 0.12
GGATAGAA | 0.206
CACTAAGC | -0.144
CGAACCAC | -0.182
CGCGAGTC | -0.249
ACCTTTTA | 0.0623
